# Experimental data from different studies.
# Lines come from different studies, so protocols differ. Several values in a cell are separate wells, animals, samples, runs or records. ± gives the spread as reported.
SMILES,assay,system,conditions,how to read,endpoint,value
O=[N+]([O-])c1ccc2c(c1)S(=O)(=O)C=C2,flow cytometry,"male C57BL/6 mice, spleen","i.p., 20 mg/kg, 8 days",baseline: CD45+ cells,Gr-1+ CD11b+ cells,1.16%
COc1cccc(Oc2ccccc2NC(=O)CNC(=O)c2cccc3ccccc23)c1,,"esterase-deficient SCID mice, male","oral, 100 mg/kg/day, 14 days, toxicity study",,blood urea nitrogen,29 mg/dL and 27 mg/dL and 33 mg/dL
CC(C)[C@H](O)C(=O)N[C@H]1Cc2ccc3c(c2)[C@]2(C4=C(c5nc(CO)co5)N=C(O4)[C@H](C(C)(C)C)NC1=O)c1cc(F)ccc1N[C@@H]2O3,,"NSG mice, heart","intravenous, 10 mg/kg, single dose at MTD, added: paclitaxel 40 mg/kg",,AUC(0-t),1210 ng·h/mL
C=CCNc1c(O)cc2c(O)c1C[C@@H](C)C[C@H](OC)[C@H](O)[C@@H](C)/C=C(\C)[C@H](OC(N)=O)[C@@H](OC)/C=C\C=C(/C)C(=O)N2,item: nausea,unresectable or metastatic GIST/STS,"intravenous, dose not given, all patients",,patients with related AEs,43%
COc1ccc(-c2c(-c3ccc(C#N)c(F)c3)nc(N3CCC(N)CC3)n(C)c2=O)cc1F,item: Dysgeusia,human patients,"oral, dose not given, grade 3 to 4, dose escalation, NG",,treatment-related adverse event incidence,0%
CO[C@H]1C[C@@H]2CC[C@@H](C)[C@@](O)(O2)C(=O)C(=O)N2CCCC[C@H]2C(=O)O[C@H]([C@H](C)C[C@@H]2CC[C@@H](OC(=O)NCCOCCOCCOCCOCCOCCOCCOCCOCCC(=O)N3CCc4cc(Cn5nc(-c6ccc7oc(N)nc7c6)c6c(N)ncnc65)ccc4C3)[C@H](OC)C2)C[C@@H](O)[C@H](C)/C=C(\C)[C@@H](O)[C@@H](OC)C(=O)[C@H](C)C[C@H](C)/C=C/C=C/C=C/1C,phase 1 dose escalation,advanced solid tumour patients,"intravenous, 12 mg weekly, grade ≥3",,any SAE incidence,16.7%
CC(C)C[C@H](NC(=O)[C@H](CCCCN)NC(=O)OCC1c2ccccc2-c2ccccc21)C(=O)N[C@H](C(=O)N[C@@H](Cc1ccccc1)C(=O)N[C@@H](Cc1ccccc1)C(=O)N[C@@H](CCCCN)C(=O)NCC(=O)N[C@@H](Cc1ccccc1)C(=O)N[C@@H](C)C(=O)N[C@@H](Cc1c[nH]c2ccccc12)C(=O)N[C@@H](CC(N)=O)C(=O)N[C@H](C(=O)N[C@H]1CSSC[C@@H](C(=O)N[C@@H](Cc2c[nH]cn2)C(=O)N[C@@H](CCCNC(=N)N)C(=O)N[C@@H](CCCNC(=N)N)C(=O)N[C@@H](C)C(=O)N[C@@H](CC(N)=O)C(N)=O)NC(=O)[C@H](C(C)C)NC(=O)[C@H](CCCNC(=N)N)NC(=O)[C@H](C(C)C)NC(=O)CNC(=O)[C@H](CC(N)=O)NC(=O)[C@H](CCCNC(=N)N)NC(=O)[C@H](Cc2ccc(O)cc2)NC(=O)[C@H](C(C)C)NC1=O)C(C)C)C(C)C,HPLC,mouse kidney homogenate,"2560 µM, 8.00 h, 37 °C, 50 mg/mL tissue",,remaining peptide,53% and 56.3% and 55.4%
C=CC(=O)N1CC[C@H](n2nc(C#Cc3cc(OC)cc(OC)c3)c3c(N)ncnc32)C1,,patients with advanced solid tumours,"oral, dose not given, Vomiting, any grade, QD, added: ferric citrate hydrate",,adverse drug reaction incidence,100%
COc1cc(Nc2ncc(F)c(Nc3ccc4c(n3)NC(=O)C(C)(C)O4)n2)cc(OC)c1OC,,kinase assay buffer,"24 h, 0.1% DMSO",,solubility,38.6 µM
N=C(CC(O)c1cc2c(F)cc(F)cc2c2cc(C(F)(F)F)ccc12)Nc1ccc(Br)cc1 (stereo not shown),,human,30 min,,blood-to-plasma ratio,0.97 ± 0.07
O=c1ccc2ncc(=O)n3c2n1C[C@H]3CN1CCC(NCc2cc3c(cn2)OCCC3)CC1,,healthy human volunteers,"oral, 1500 mg, rifampicin cohort, added: rifampicin 600 mg",,incidence of gastrointestinal disorders,18%
O=S(=O)(Nc1ccccc1)c1ccc(NC(=S)Nc2ccccc2)cc1,item: Glu,"female mouse, blood","oral, 5 mg/kg daily, 14 days",,blood chemistry level,213 mg/dL
CC(C)(c1ccccc1)c1cc(-n2nc3ccccc3n2)c(O)c(C(C)(C)c2ccccc2)c1,exposure assessment,"human, age 21-60 years, sunscreen",,,dermal uptake,0.48 ng/kg body weight/day
C[C@@H](NC(=O)N1C(=O)[C@H](Cc2ccnc(N)c2)[C@H]1C(=O)O)C1CCCCC1,,healthy adult Chinese volunteers,"continuous intravenous infusion, 0.6 mg/kg/h, 5-day infusion, CTCAE 5.0 grading",,incidence of elevated neutrophil,0%
COc1cc2c(Oc3ccc4[nH]c(C)cc4c3F)ccnc2cc1OCC1(N)CC1,,paediatric recurrent refractory sarcoma,10 mg,,grade 1 or 2 intestinal obstruction,0%
Cc1c(COC(=O)[C@@H]2[C@H](/C=C(\Cl)C(F)(F)F)C2(C)C)cccc1-c1ccccc1 (racemic),item: CYP3A4,"human, age 5 years, recombinant human CYP3A4",0.1 µM,,enzyme contribution to clearance,17.5%
NC(=O)[C@H]1CCN(c2ncnc(N)c2F)C[C@@H]1N1CCC[C@@H](Nc2cc(Cl)cc(C(F)(F)F)c2)C1=O,,B-cell malignancy patients,"oral, 164 mg twice daily, dose",,grade ≥3 lymphopenia,0%
COc1cc(C(=O)NC2CCN(C)CC2)c(F)cc1Nc1ncc(C(F)(F)F)c(Oc2cccc3c2C(=O)N(C)C3)n1,,"human patients, urine","oral, 300 mg single dose, geometric mean",baseline: dose,fraction excreted in urine (0-24 h),6.48%
C[C@@H]1OC(=O)NN=C1c1ccc(-c2ccc(F)cc2)c(C(F)(F)F)c1,"phase I trial, item: back pain worst grade 1",human patients,5 mg loading then 0.25 mg daily,,patients with adverse event,0%
C[C@]1(CO)Cc2ncn(-c3ccc(C#N)c(Cl)c3)c2C(=O)O1,,human,"all treatments, European food-effect part",,drug-related urine abnormality,0%
CCCCCCCCCCCCCCCC(=O)N[C@@H](CCC(=O)NCCCC[C@H](NC(=O)[C@H](CC(=O)O)NC(=O)[C@H](CO)NC(=O)[C@@H](NC(=O)[C@H](Cc1ccccc1)NC(=O)[C@@H](NC(=O)CNC(=O)[C@H](CCC(N)=O)NC(=O)[C@H](CO)NC(=O)[C@@H](N)Cc1c[nH]cn1)[C@@H](C)O)[C@@H](C)O)C(=O)N[C@@H](CO)C(=O)N[C@@H](CCC(=O)O)C(=O)N[C@@H](Cc1ccc(O)cc1)C(=O)N[C@@H](CC(C)C)C(=O)N[C@@H](CC(=O)O)C(=O)N[C@@H](CO)C(=O)N[C@@H](CCC(=O)O)C(=O)N[C@@H](CCCNC(=N)N)C(=O)N[C@@H](C)C(=O)N[C@@H](CCCNC(=N)N)C(=O)N[C@@H](CC(=O)O)C(=O)N[C@@H](Cc1ccccc1)C(=O)N[C@H](C(=O)N[C@@H](C)C(=O)N[C@@H](Cc1c[nH]c2ccccc12)C(=O)N[C@@H](CC(C)C)C(=O)N[C@@H](CCC(=O)O)C(=O)N[C@@H](C)C(=O)NCC(=O)NCC(=O)O)C(C)C)C(=O)O,item: Headache,humans CrCl 30 to 45 mL/min,"subcutaneous, 100 µg single dose",,treatment-related adverse events,9.1%
O=C1Nc2cc3[nH]nc(-c4ccncc4)c3cc2CN1Cc1ccccc1,CTCAE v4.03,advanced solid tumour patients,"intravenous, 3.6 mg/kg",,patients with dyspepsia,0%
Cc1ccc(F)c2cc(C(=O)N[C@@H]3CCC[C@H](N4CC[C@H](N(C)S(C)(=O)=O)C4)C3)[nH]c12,,"CD1 mouse, plasma","oral, 30 mg/kg, 4 h",,plasma concentration,384 ng/mL
Oc1cc(Cl)cc(-c2cc(Cl)ccc2Cl)c1Cl,,"Sprague Dawley rat, female, adipose tissue, wet weight","intraperitoneal, 100 mg/kg, 3 weeks",,concentration,1.24 ng/g
Clc1cc2c(cc1Cl)Oc1cc(Cl)c(Cl)cc1O2,"RNA-Seq, item: Cyp2j4","female Sprague-Dawley rat, liver",dose not given,baseline: vehicle,mRNA level,1.7 fold
CCC[C@@](N)(CO)CCc1ccc(OCCCCCC(C)C)cc1,,C57BL/6 mice,"oral, 50 mg/kg",,oral bioavailability,69%
Fc1ccc([C@@H]2CCNC[C@H]2COc2ccc3c(c2)OCO3)cc1,item: Irritability,healthy volunteers,"oral, dose not given, given -1 h relative to LSD, added: LSD",direction not given,List of Complaints score,0 score
CC(=O)c1c(C)c2cnc(Nc3ccc(C4CCN(CCS(C)(=O)=O)CC4)cn3)nc2n(C2CCCC2)c1=O,,HR+/HER2- advanced breast cancer patients,"oral, dose not given, all grades,, total",,patients with ALT increased,25.9%
Cc1cccc(Cn2nc(C3CC3)c3c(NC(=O)c4cnc5cc(OCCN6CCN(C)CC6)ccn45)cccc32)n1,CTCAE v4.03,patients with advanced solid tumours,"oral, all dose levels, added: pembrolizumab 2 mg/kg IV every 3 weeks",,all-cause adverse events,94.7%
O=C(Nc1ccccc1)C1CCN(C(=O)Oc2cccnc2)CC1,adverse event reporting,healthy women,"oral, 60 mg, 7 days",,subjects with eye disorders,7.1%
CC(C)[C@@H]1NC(=O)CNC(=O)[C@H](CC(N)=O)NC(=O)[C@H](CCCNC(=N)N)NC(=O)[C@H](Cc2ccc(O)cc2)NC(=O)[C@H](C(C)C)NC(=O)[C@@H](NC(=O)[C@@H](NC(=O)[C@H](CC(N)=O)NC(=O)[C@H](Cc2c[nH]c3ccccc23)NC(=O)[C@H](C)NC(=O)[C@H](Cc2ccccc2)NC(=O)CN)C(C)C)CSSC[C@@H](C(=O)N[C@@H](Cc2cnc[nH]2)C(=O)N[C@@H](CCCNC(=N)N)C(=O)N[C@@H](CCCNC(=N)N)C(=O)N[C@@H](C)C(=O)N[C@@H](CC(N)=O)C(N)=O)NC(=O)[C@H](C(C)C)NC(=O)[C@H](CCCNC(=N)N)NC1=O,,"ICR mice, blood","intraperitoneal, 10 mg/kg, day 5",,plateletcrit,0.02%
COc1cccc2c1CCCC2CCCN1CCN(C2CCCCC2)CC1 (stereo not shown),,"CD-1 mouse, male, plasma","intraperitoneal, 1 mg/kg",,AUC(0-inf),78.2 ng·h/mL
COc1ncccc1-c1cnn2ccc(N3CCN(C(=O)OC(C)C)CC3)nc12,,"rat, brain","oral, 30 mg/kg, 1.5 h, added: yohimbine pretreatment",,concentration,4.7 µM
CN(C(=O)n1cnc(-c2ccc[n+]([O-])c2)c1)C1CCCCC1,,"Wistar rat, medulla oblongata","oral, 10 mg/kg, 1 h, single dose",,concentration,334 ± 44.7 ng/g
CC(C)Nc1ccnc(Nc2cccc(-c3cccnc3)c2)n1,item: total protein,"mouse, blood","intraperitoneal, 5 mg/kg",,blood chemistry,5.7 g/dL
CN1CC[C@@H](c2c(O)cc(O)c3c(=O)cc(-c4ccc(C(F)(F)F)cc4Cl)oc23)[C@@H]1CO,item: Constipation,AML,"oral, 150 mg, intermittent dosing",,patients with adverse event,50%
O=C(O)CCC(CP(=O)(O)O)C(=O)O (stereo not shown),,rat plasma,"0.3 µg/mL, freeze-thaw cycle 3 at -80 °C",,measured concentration,0.355 ± 0.009 µg/mL

# Some of these lines once more:
SMILES,assay,system,conditions,how to read,endpoint,value
CN1CC[C@@H](c2c(O)cc(O)c3c(=O)cc(-c4ccc(C(F)(F)F)cc4Cl)oc23)[C@@H]1CO,item: Constipation,AML,"oral, 150 mg, intermittent dosing",,patients with adverse event,50%
COc1cc(Nc2ncc(F)c(Nc3ccc4c(n3)NC(=O)C(C)(C)O4)n2)cc(OC)c1OC,,kinase assay buffer,"24 h, 0.1% DMSO",,solubility,38.6 µM
